Published values collected from several papers.
Compare with care: the assays were run in different laboratories.
Organism: HIV-1

| Compound | test | system | setting | EC90 [µM] |
| --- | --- | --- | --- | --- |
| Cc1ccc(N2C(=O)CCC2(C#N)c2ccc(OC(C)C)cc2)cc1 (centres unmarked) | viral replication | human PBMC, LAI | – | > 100 |
| Cc1cc(C)cc(C(=O)c2cc(Cl)ccc2OCCn2c3c(c(=O)[nH]c2=O)CCC3)c1 | cell-to-cell transmission | MOLT-4/R5 and GHOST(3)R5, CCR5-tropic | CD4-dependent | 0.15 |
| Cc1ccc(N2C(=O)CCC2(C#N)c2ccc(OCc3ccccc3)cc2)cc1 (centres unmarked) | viral replication | human PBMC, LAI | – | > 100 |
| CC(=NNC(=O)CN1c2c(-c3ccccc3)n[nH]c2-c2ccccc2S1(=O)=O)c1nccs1 | viral replication | PBMC | – | > 100 |
| O=C(CN1c2c(n[nH]c2-c2cccc(Cl)c2)-c2ccccc2S1(=O)=O)NN=Cc1cccc([N+](=O)[O-])c1 | viral replication | PBMC | – | > 100 |
| CC(=NNC(=O)CN1c2c(-c3ccccc3)n[nH]c2-c2ccccc2S1(=O)=O)c1cccs1 | viral replication | PBMC | – | 45.2 |
| O=C(CN1c2c(n[nH]c2-c2cccc(Cl)c2)-c2ccccc2S1(=O)=O)NN=Cc1ccc(F)cc1 | viral replication | PBMC | – | 26.7 |
| CC(=NNC(=O)CN1c2c(-c3ccccc3)n[nH]c2-c2ccccc2S1(=O)=O)c1ccncc1 | viral replication | PBMC | – | > 100 |
| Cc1cc(C)cc(NC(C(N)=O)c2c(Cl)cccc2Cl)c1 (centres unmarked) | viral replication | human PBMC, LAI | – | 3.1 |
| CC(=NNC(=O)CN1c2c(-c3ccccc3)n[nH]c2-c2ccccc2S1(=O)=O)c1cc(Cl)sc1Cl | viral replication | PBMC | – | 38.8 |
| O=C(CN1c2c(n[nH]c2-c2cccc(Cl)c2)-c2ccccc2S1(=O)=O)NN=Cc1cccc(Br)c1 | viral replication | PBMC | – | > 10 |
| Cc1ccc(NC(C#N)c2ccc(OCc3ccc(Cl)cc3Cl)cc2)cc1 (centres unmarked) | viral replication | human PBMC, LAI | – | 22.4 |
| O=C(CN1c2c(n[nH]c2-c2cccc(Cl)c2)-c2ccccc2S1(=O)=O)NN=Cc1cccc(Cl)c1 | viral replication | PBMC | – | > 10 |
| C=C(C)[C@]12C[C@@H](COC(C)=O)[C@@]34O[C@]5(O[C@@H]1[C@@H]3[C@@H]1O[C@]1(CO)[C@@H](O)[C@@]1(O)[C@H]4[C@H]([C@H](C)[C@@H]1OC(=O)c1ccccc1)[C@H](C)CCCCCC[C@H]5O)O2 | viral replication | MT4, NL4-3 | – | < 0.001 |

For quick reference, copied from above:
| Compound | test | system | setting | EC90 [µM] |
| --- | --- | --- | --- | --- |
| CC(=NNC(=O)CN1c2c(-c3ccccc3)n[nH]c2-c2ccccc2S1(=O)=O)c1nccs1 | viral replication | PBMC | – | > 100 |
| O=C(CN1c2c(n[nH]c2-c2cccc(Cl)c2)-c2ccccc2S1(=O)=O)NN=Cc1cccc([N+](=O)[O-])c1 | viral replication | PBMC | – | > 100 |
